Assay results collected from several papers.
Lines come from different studies, so protocols differ. Several values in a cell are separate wells, animals, samples, runs or records. ± gives the spread as reported.

SMILES = COc1cc2c3cc1Oc1c(OC)c(OC)cc4c1[C@@H](Cc1ccc(O)c(c1)Oc1ccc(cc1)C[C@@H]3N(C)CC2)N(C)CC4; test system = mouse plasma, K3EDTA; setting = 0.5 h, 25-26 °C, room temperature; measurement = remaining compound; result = 105%
SMILES = COc1cc(Nc2ncc3c(n2)-c2ccc(Cl)cc2C(c2c(F)cccc2OC)=NC3)ccc1C(=O)O; test system = cancer patients; setting = oral, dose not given, grade 1 any attribution, with: pembrolizumab; measurement = patients with sore throat; result = 13%
SMILES = N#CCNC(=O)c1ccc(-c2ccnc(Nc3ccc(N4CCOCC4)cc3)n2)cc1; test system = healthy volunteers, plasma; setting = dose not given, with: rifampin multiple-dose; scale = relative to: compound alone; measurement = median half-life change; result = decreased
SMILES = C[C@H]1[C@H](NC(=O)/C(=N\OC(C)(C)C(=O)O)c2csc(N)n2)C(=O)N1S(=O)(=O)O; assay = starch gel membrane permeability; test system = Gram-negative envelope surrogate; setting = 200 µM, 90 min, pH 7.4; measurement = amount permeated; result = 4.92 nmol
SMILES = C=CC(=O)NC1CCN(c2ncc3ncnc(Nc4ccc(Oc5ccc6c(c5)ncn6C)c(C)c4)c3n2)CC1; assay = item: skin disorders (SOC); test system = human male; setting = oral, dose not given, AEs, treatment-related, on drug, CTCAE; measurement = adverse events incidence; result = 0%
SMILES = OCCOCc1ccc(-c2noc(-c3ccc(OCC[18F])c(C(F)(F)F)c3)n2)cc1; test system = Macaca mulatta, liver; setting = female phantom OLINDA/EXM; measurement = absorbed radiation dose; result = 0.16 mSv/MBq
SMILES = Cc1nc(-c2ccc(OCC(C)C)c(C#N)c2)sc1C(=O)O; test system = KM mouse, chronic hyperuricaemia model; setting = dose not given, day 4; measurement = body weight; result = 26.5 g and 29.4 g and 29.7 g and 27.1 g and 30.4 g and 28.7 g
SMILES = Cc1c(Cl)c(C)[n+]([O-])c(Cl)c1-c1noc(-c2cc(O)c(O)c([N+](=O)[O-])c2)n1; test system = healthy Chinese subjects; setting = oral, 50 mg, 20 days; measurement = TEAE incidence; result = 13.3%
SMILES = COc1c(O)c(C)cc2c1C(=O)c1c(cc(O)c(O)c1O)C2=O; target or system = HepaRG co-cultured with HK-2; assay = MTT; setting = 66.67 µM, 24 h; scale = relative to: untreated control; measurement = cell viability; result = 58 ± 8.61%
SMILES = CCN1/C(=C/C(C)=O)Sc2ccc(F)cc21; test system = cynomolgus monkey; setting = oral, 100 mg/kg, 0.5 h post-dose; measurement = QT interval; result = 226 ± 8 ms
SMILES = CCn1c(=O)c(-c2cc(NC(=O)Nc3ccccc3)c(F)cc2Br)cc2cnc(NC)cc21; assay = item: lipase increased; test system = healthy human, matched to mild hepatic impairment; setting = oral, 50 mg single dose; measurement = participants with grade ≥ 3 TEAE; result = 12.5%
SMILES = CC(C)c1nc(CN(C)C(=O)N[C@@H](CCN2CCOCC2)C(=O)N[C@H](CC[C@H](Cc2ccccc2)NC(=O)OCc2cncs2)Cc2ccccc2)cs1; assay = item: Photopsia; test system = human; setting = oral, 150 mg; measurement = drug-related TEAE incidence; result = 0%
SMILES = O=[N+]([O-])c1ccc(-c2ccc(O)cc2)c2cccnc12; test system = ICR mice male, plasma; setting = oral, 5 mg/kg; measurement = MRT; result = 0.955 h
SMILES = N#Cc1ccc2c(c1)[C@H]1CCCN(C(=O)c3ccc4[nH]cnc4c3)[C@H]1C2; test system = human, female; setting = 10 mg, day 7; measurement = DHEA-S level; result = 3.4 µmol/L
SMILES = COc1cc(C[C@@H](CO)[C@H](CO)Cc2ccc(O)c(OC)c2)ccc1O; test system = human plasma; setting = mean; measurement = plasma concentration; result = 2810 nM
SMILES = C[C@@H](N)c1cc(Cl)ccc1Cn1c(=S)[nH]c(=O)c2[nH]ccc21; test system = human; setting = oral, 2.5 mg single dose; measurement = drug-related adverse events; result = 0%
SMILES = CN1C(=O)[C@@H](NC(=O)c2nnc(Cc3ccccc3)[nH]2)COc2cccnc21; assay = phase I multiple ascending dose; test system = human, male and female; setting = oral, 600 mg, 14 days; measurement = participants with any serious TEAE; result = 0%
SMILES = CNc1ccc(-c2nc3ccc(O)cc3s2)cc1 [carbon-11 labelled]; assay = ex vivo biodistribution; test system = B6SJL mouse, normal, pancreas; setting = intravenous, 30 min; measurement = SUV; result = 0.911 ± 0.217
SMILES = O=C(O)CCC(=O)O.[2H]C([2H])([2H])Oc1cc(C)c2[nH]ccc2c1CN1CC[C@@H](C2CC2)C[C@H]1c1ccc(C(=O)O)cc1; assay = multiple ascending dose; test system = healthy Chinese subjects; setting = 125 mg twice daily; measurement = subjects with neutropenia; result = 0%
SMILES = NC1(C(=O)N[C@@H](CCO)c2ccc(Cl)cc2)CCN(c2nc[nH]c3nccc2-3)CC1; test system = metastatic CRPC patients; setting = 320 mg b.i.d., any grade, treatment-related, with: enzalutamide 160 mg daily; measurement = incidence of Amnesia; result = 0%
SMILES = O=C(O)c1cc(O)c2c(c1)C(=O)c1cccc(O[C@@H]3O[C@H](CO)[C@@H](O)[C@H](O)[C@H]3O)c1C2=O; target or system = HepaRG co-cultured with HK-2; assay = MTT; setting = 133.33 µM, 24 h; scale = relative to: untreated control; measurement = cell viability; result = 94.4 ± 6.73%
SMILES = O=C1C[C@@H](c2ccc(O)cc2)Oc2cc(O[C@@H]3O[C@H](C(=O)O)[C@@H](O)[C@H](O)[C@H]3O)cc(O)c21; test system = human plasma; setting = median; measurement = plasma concentration; result = 617 nM
SMILES = CN(C)C(=O)CCc1nc(-c2ccccc2)c(-c2ccccc2)o1; target or system = COS-7; setting = 50 µM, 24 h, 0.1% DMSO, unit not given; scale = relative to: vehicle control; measurement = apoptotic cells; result = 0.8 ± 0.21
SMILES = COc1cccc(-c2n[nH]c(SCc3ccccn3)n2)c1OC; test system = Sprague-Dawley rat, female, plasma; setting = oral gavage, 30 mg/kg; measurement = Cmax; result = 45400 ng/mL
SMILES = COc1ccc(C=CC(=O)O)cc1OS(=O)(=O)O; test system = human plasma; setting = mean; measurement = plasma concentration; result = 900 nM
SMILES = Cc1cc(Nc2ccc(S(F)(F)(F)(F)F)cc2)n2nc(C(C)(F)F)nc2n1; test system = Plasmodium falciparum malaria patients; setting = oral, 400 mg; measurement = adverse event Nausea; result = 15.4%
SMILES = Cn1c(=O)c2[nH]cnc2n(C)c1=O; test system = human, both sexes, plasma; measurement = samples above LOQ; result = 100%
SMILES = C[C@H]1Oc2cc(cnc2N)-c2c(nn(C)c2C#N)CN(C)C(=O)c2ccc(F)cc21; test system = human patients, plasma; setting = oral, dose not given, cycle 2 day 1, geometric mean, with: avelumab; measurement = AUCtau, dose-normalized; result = 59 ng·h/mL/mg
SMILES = Cc1nc(-c2ccc(OCC(C)C)c(C#N)c2)sc1C(=O)O; test system = human, plasma; setting = oral, 40 mg once daily, with: verinurad 5 mg; measurement = AUC(0-24); result = 5620 ng·h/mL
SMILES = Cc1cc(Nc2cc3ncccc3c(N[C@@H]3C[C@H]4CC[C@@H](C3)N4CCC#N)n2)n[nH]1; test system = healthy human subjects; setting = oral, 10 mg, 14 days, multiple ascending dose; measurement = sneezing incidence; result = 0%
SMILES = Cc1cc(C)c(CNC(=O)c2cc(Cl)c3c(c2C)O[C@@](C)([C@H]2CC[C@H](N(C)C)CC2)O3)c(=O)[nH]1; test system = human, plasma; setting = oral, 200 mg, cycle 1 day 1, mean, tau 24 h; measurement = AUCtau (total); result = 18100 ng·h/mL
SMILES = O=C(N[C@H](Cc1c[nH]c2ccccc12)C(=O)Nc1ccncc1)c1ccc(-c2ccc(F)c(C(F)(F)F)c2)cc1F; test system = Swiss Webster mouse, female, heart; setting = oral, 50 mg/kg, 2 h, 20% HPβCD vehicle; measurement = concentration; result = 4190 nM
SMILES = CC(C)(C(=O)N1CCOc2c(C#N)cncc2C1)C(F)F; assay = item: Dizziness; test system = human; setting = oral, 20 mg twice daily, 14 days, multiple ascending dose; measurement = subjects with adverse event; result = 0%
SMILES = CNCCOC12CC3(C)CC(C)(CC(Cn4ncc(-c5ccc(N6CCc7cccc(C(=O)Nc8nc9ccccc9s8)c7C6)nc5C(=O)O)c4C)(C3)C1)C2; test system = beagle dog, male, anaesthetised; setting = intravenous bolus, 0.03 mg/kg, 105 min; scale = relative to: baseline; measurement = dP/dt at 50 change; result = -4%
SMILES = Cc1c2oc3c(C)ccc(C(=O)N[C@@H]4C(=O)N[C@H](C(C)C)C(=O)N5CCC[C@H]5C(=O)N(C)CC(=O)N(C)[C@@H](C(C)C)C(=O)O[C@@H]4C)c3nc-2c(C(=O)N[C@@H]2C(=O)N[C@H](C(C)C)C(=O)N3CCC[C@H]3C(=O)N(C)CC(=O)N(C)[C@@H](C(C)C)C(=O)O[C@@H]2C)c(N)c1=O; assay = LC-MS; test system = children with cancer, plasma; setting = dose not given, 2 h; measurement = median plasma concentration; result = 4.8 µg/L
SMILES = Cc1ccc(Sc2ccccc2N2CCNCC2)c(C)c1; assay = item: ALT increased; test system = healthy adult men; setting = oral, 20 mg daily, 12 days; measurement = participants with TEAE; result = 16.7%
SMILES = COc1ccc([C@@H]2CC(=O)c3c(O)cc(O)cc3O2)cc1O; test system = human plasma; setting = median, both sexes; measurement = plasma concentration; result = 168 nM
SMILES = Nc1nc2c(nc([N+](=O)[O-])n2[C@@H]2O[C@H](CO)[C@@H](O)[C@H]2O)c(=O)[nH]1; assay = depurination, RP-HPLC; test system = citrate-phosphate buffer 0.5 mM; setting = 1177 min, pH 7, 37 °C; measurement = nucleoside remaining fraction; result = 0.536
SMILES = C[C@H]1CN(C(=O)CC#N)[C@]12CCN(c1ncnc3[nH]ccc13)C2; test system = healthy adults, plasma; setting = oral, 1.5 mg single dose, median; measurement = t1/2; result = 1.8 h
SMILES = CCc1cc(C(=O)NC)c2nccc(N3CCc4c(cc(Cn5ccnc5)cc4-c4cn(C)nc4C(F)(F)F)C3=O)c2c1; test system = Sprague Dawley rats; setting = oral, 100 mg/kg once daily, 7 days; measurement = blood TP; result = 58.7 ± 2.7 g/L
SMILES = Cc1cc(-c2nccc3c2ccn3CC(=O)Nc2ccc(-c3cnccn3)cn2)ccn1; test system = human; setting = MAD part, 15 mg once daily; measurement = subjects with skin abrasion TEAEs; result = 0%
SMILES = CC(C)NCCCC[C@@H]1NC(=O)[C@H](Cc2ccc(O)cc2)NC(=O)[C@H](Cc2ccccc2)NC(=O)CC[C@H](C(=O)N[C@@H](CCCCNC(C)C)C(=O)N[C@@H](CCCCNC(=O)[C@H](CCC(=O)O)NC(=O)[C@H](CCC(=O)O)NC(=O)[C@H](CCC(=O)O)NC(=O)CN2CCN(CC(=O)O)CCN(CC(=O)O)CCN(CC(=O)O)CC2)C(N)=O)NC(=O)CNC(=O)[C@H](Cc2ccc3ccccc3c2)NC(=O)[C@@H](CCCNC(=N)N)NC1=O [gallium-68 labelled]; test system = mouse with Daudi xenograft, adrenals; setting = intravenous, 2 h; measurement = tissue uptake; result = 0.21 %ID/g
SMILES = CN(C)[C@@H]1C(O)=C(C(N)=O)C(=O)[C@@]2(O)C(O)=C3C(=O)c4c(O)cccc4[C@@](C)(O)[C@H]3C[C@@H]12; assay = starch gel membrane permeability; test system = Gram-negative envelope surrogate; setting = 200 µM, 10 min, pH 7.4; measurement = amount permeated; result = 0.68 nmol
SMILES = CC[C@H](C)C(=O)O[C@H]1C[C@H](O)C=C2C=C[C@H](C)[C@H](CC[C@@H](O)C[C@@H](O)CC(=O)O)[C@H]21; target or system = COS-7; assay = WST-8; setting = 10 µM, 24 h, 0.1% DMSO, unit not given; scale = relative to: vehicle control; measurement = metabolic activity; result = 0.99 ± 0.03
SMILES = O=c1oc2cc(O)ccc2c2cc(O)ccc12; test system = human plasma; setting = median; measurement = plasma concentration; result = 1000 nM
SMILES = CCO[C@H]1CCN(Cc2c(OC)cc(C)c3[nH]ccc23)[C@H](c2ccc(C(=O)O)cc2)C1; test system = human severe hepatic impairment, plasma; setting = oral, 200 mg single dose, geometric mean; measurement = total AUC(0-inf); result = 58000 ng·h/mL
SMILES = CC[C@H]1OC(=O)[C@H](C)[C@@H](O[C@H]2C[C@@](C)(OC)[C@@H](O)[C@H](C)O2)[C@H](C)[C@@H](O[C@@H]2O[C@H](C)C[C@H](N(C)C)[C@H]2O)[C@](C)(O)C[C@@H](C)C(=O)[C@H](C)[C@@H](O)[C@]1(C)O; assay = starch gel membrane permeability; test system = Gram-negative envelope surrogate; setting = 200 µM, 45 min, pH 7.4; measurement = amount permeated; result = 0.56 nmol
SMILES = CCOc1c([C@H](C)n2nc(C)c3c(N)ncnc32)cc(Cl)c(F)c1[C@@H]1CNC(=O)C1; assay = item: QTcF change ≤30 ms; test system = previously treated B-cell malignancy; setting = oral, 10 mg once daily, overall population; scale = relative to: baseline; measurement = ECG observations; result = 100%

Excerpt of the above:
SMILES = O=C1C[C@@H](c2ccc(O)cc2)Oc2cc(O[C@@H]3O[C@H](C(=O)O)[C@@H](O)[C@H](O)[C@H]3O)cc(O)c21; test system = human plasma; setting = median; measurement = plasma concentration; result = 617 nM
SMILES = CN(C)C(=O)CCc1nc(-c2ccccc2)c(-c2ccccc2)o1; target or system = COS-7; setting = 50 µM, 24 h, 0.1% DMSO, unit not given; scale = relative to: vehicle control; measurement = apoptotic cells; result = 0.8 ± 0.21
SMILES = COc1cccc(-c2n[nH]c(SCc3ccccn3)n2)c1OC; test system = Sprague-Dawley rat, female, plasma; setting = oral gavage, 30 mg/kg; measurement = Cmax; result = 45400 ng/mL
SMILES = COc1ccc(C=CC(=O)O)cc1OS(=O)(=O)O; test system = human plasma; setting = mean; measurement = plasma concentration; result = 900 nM
